Experimental data gathered from unrelated publications.
Parts stem from different laboratories: compare values within a part only. Values joined by “and” are separate records of one study, mostly repeats; a detail may differ. Numbers after ± are the reported error.
Chain of UniProt P41143 (whole entry, unmodified, looked up): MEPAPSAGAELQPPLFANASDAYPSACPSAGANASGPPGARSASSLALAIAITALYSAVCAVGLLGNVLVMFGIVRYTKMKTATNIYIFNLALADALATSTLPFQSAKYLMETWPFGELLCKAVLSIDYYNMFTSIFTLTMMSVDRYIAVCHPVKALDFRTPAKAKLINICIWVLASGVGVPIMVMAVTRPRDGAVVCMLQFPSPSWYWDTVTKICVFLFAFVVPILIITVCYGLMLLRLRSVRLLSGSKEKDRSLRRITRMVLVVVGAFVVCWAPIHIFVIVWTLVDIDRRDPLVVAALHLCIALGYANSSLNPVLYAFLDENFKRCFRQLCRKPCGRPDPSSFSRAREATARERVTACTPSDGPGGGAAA
Chain of UniProt Q9UKT9 (whole entry, looked up): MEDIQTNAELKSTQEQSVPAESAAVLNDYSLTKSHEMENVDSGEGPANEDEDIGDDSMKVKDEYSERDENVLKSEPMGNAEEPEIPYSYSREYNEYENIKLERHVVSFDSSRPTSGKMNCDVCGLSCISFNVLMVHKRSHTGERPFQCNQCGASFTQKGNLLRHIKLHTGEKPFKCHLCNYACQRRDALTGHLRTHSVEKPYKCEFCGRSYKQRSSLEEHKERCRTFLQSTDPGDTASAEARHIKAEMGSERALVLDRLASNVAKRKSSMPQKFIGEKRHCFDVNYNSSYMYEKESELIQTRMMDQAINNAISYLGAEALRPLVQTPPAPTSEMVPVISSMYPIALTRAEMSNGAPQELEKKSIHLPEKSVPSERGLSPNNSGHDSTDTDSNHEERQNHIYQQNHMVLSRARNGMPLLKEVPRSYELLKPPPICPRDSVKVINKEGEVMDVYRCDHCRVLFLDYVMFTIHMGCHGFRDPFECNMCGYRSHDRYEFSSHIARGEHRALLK
Chain of UniProt Q9UJQ4 (whole entry, looked up): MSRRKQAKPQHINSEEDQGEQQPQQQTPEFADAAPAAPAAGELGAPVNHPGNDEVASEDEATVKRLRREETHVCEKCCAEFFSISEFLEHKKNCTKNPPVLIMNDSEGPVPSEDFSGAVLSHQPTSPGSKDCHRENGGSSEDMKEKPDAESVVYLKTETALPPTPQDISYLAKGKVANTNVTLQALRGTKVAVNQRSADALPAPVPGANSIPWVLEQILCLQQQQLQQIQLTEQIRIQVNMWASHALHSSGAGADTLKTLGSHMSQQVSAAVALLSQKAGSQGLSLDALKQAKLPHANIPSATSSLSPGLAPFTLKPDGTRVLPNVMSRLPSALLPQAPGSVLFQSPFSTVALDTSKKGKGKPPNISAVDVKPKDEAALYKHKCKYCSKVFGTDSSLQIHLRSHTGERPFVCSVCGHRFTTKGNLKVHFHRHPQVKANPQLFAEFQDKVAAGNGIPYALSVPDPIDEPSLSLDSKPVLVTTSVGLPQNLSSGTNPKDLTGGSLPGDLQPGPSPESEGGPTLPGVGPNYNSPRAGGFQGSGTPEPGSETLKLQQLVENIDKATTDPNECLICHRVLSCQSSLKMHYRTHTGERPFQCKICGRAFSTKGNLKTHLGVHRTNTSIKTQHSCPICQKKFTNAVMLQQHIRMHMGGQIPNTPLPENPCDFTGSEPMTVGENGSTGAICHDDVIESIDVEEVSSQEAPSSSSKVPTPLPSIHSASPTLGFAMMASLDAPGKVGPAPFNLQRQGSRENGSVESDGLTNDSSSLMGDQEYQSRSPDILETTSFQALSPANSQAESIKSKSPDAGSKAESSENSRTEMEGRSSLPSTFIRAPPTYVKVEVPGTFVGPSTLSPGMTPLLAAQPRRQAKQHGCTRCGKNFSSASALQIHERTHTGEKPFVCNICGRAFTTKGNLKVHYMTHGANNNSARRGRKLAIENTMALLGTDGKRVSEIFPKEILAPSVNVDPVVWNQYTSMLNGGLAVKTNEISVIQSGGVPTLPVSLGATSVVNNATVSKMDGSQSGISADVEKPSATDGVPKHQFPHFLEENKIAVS
Chain of UniProt P46934 (whole entry, looked up): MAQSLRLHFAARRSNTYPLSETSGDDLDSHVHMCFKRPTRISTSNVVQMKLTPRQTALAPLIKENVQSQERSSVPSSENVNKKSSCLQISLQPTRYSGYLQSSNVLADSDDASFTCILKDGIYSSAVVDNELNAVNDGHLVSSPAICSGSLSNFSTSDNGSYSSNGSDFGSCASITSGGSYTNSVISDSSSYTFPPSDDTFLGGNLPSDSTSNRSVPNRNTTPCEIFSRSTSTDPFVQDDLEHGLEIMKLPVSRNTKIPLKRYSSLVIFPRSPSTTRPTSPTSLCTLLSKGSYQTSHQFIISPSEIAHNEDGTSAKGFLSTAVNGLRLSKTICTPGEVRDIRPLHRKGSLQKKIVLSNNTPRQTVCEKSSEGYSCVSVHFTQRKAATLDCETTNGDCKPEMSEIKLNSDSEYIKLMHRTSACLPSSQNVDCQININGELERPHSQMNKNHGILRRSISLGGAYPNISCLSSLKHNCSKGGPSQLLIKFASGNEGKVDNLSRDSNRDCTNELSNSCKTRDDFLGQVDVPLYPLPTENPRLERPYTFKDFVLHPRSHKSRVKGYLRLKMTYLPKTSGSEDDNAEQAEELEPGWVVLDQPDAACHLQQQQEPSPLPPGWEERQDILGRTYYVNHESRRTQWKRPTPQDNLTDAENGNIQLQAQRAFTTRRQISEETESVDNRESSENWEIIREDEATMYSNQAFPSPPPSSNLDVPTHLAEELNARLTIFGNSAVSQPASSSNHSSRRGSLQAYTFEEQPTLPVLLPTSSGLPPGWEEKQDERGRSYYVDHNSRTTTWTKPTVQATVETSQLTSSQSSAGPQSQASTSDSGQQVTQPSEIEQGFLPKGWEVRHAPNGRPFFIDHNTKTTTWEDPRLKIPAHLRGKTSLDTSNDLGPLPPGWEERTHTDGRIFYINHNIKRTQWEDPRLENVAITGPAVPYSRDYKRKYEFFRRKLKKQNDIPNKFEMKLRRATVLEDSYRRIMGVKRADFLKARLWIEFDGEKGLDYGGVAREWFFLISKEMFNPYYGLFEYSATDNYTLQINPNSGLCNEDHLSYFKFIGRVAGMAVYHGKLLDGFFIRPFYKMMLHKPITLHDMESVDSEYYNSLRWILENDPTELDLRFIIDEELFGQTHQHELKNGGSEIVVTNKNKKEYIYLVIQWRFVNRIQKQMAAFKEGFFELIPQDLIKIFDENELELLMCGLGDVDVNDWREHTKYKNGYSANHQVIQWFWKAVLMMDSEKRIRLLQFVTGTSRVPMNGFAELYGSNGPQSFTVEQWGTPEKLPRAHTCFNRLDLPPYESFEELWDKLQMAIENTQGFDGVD

Set 1 — quantity: Emax
SMILES: N=C(N)NCCCCCCN1CCC23c4c5ccc(O)c4OC2c2nc4ccccc4cc2CC3(O)C1C5 (stereo not drawn)
Delta-type opioid receptor, with GoA (OPRD1, Homo sapiens, UniProt P41143); human cells: 83 ± 2%
Delta-type opioid receptor, with Gi1 (OPRD1, Homo sapiens, UniProt P41143, D95A); G protein activation, agonist: 33 ± 7%
Delta-type opioid receptor, with Gi1 (OPRD1, Homo sapiens, UniProt P41143, S311A); G protein activation, agonist: 56 ± 2%
Delta-type opioid receptor, with GoB (OPRD1, Homo sapiens, UniProt P41143); human cells: 86 ± 2%
Delta-type opioid receptor, with Gi3 (OPRD1, Homo sapiens, UniProt P41143); human cells: 77 ± 2%

Set 2 — organism: Staphylococcus aureus; strain: USA300; concentration: 2 x MIC; quantity: viable cells
Compound: CCCCC[C@@H]1CC(=O)N[C@@H](C(C)C)C(=O)N[C@H](CCCNC(=N)N)C(=O)N[C@@H](CO)C(=O)NCC(=O)N(C)[C@H](Cc2ccccc2)C(=O)N[C@@H](CC(C)C)C(=O)N[C@H](CCCNC(=N)N)C(=O)N[C@@H](CC(N)=O)C(=O)N[C@H](C(C)C)C(=O)N[C@H](Cc2c[nH]c3ccccc23)C(=O)NCCCC(=O)O1
120 min: 1500 CFU/mL and 1000 CFU/mL and 800 CFU/mL
180 min: 700 CFU/mL and 1000 CFU/mL and 1400 CFU/mL
15 min: 3600 CFU/mL and 4000 CFU/mL and 3500 CFU/mL
30 min: 1500 CFU/mL and 2000 CFU/mL and 1800 CFU/mL

Set 3 — cell line: P493B lymphoma cells; quantity: viability
Compound: CC(C)OC(=O)[C@H](CCC(=O)C=[N+]=[N-])NC(=O)[C@H](Cc1c[nH]c2ccccc12)NC(=O)C12CCN(CC1)CC2
1 µM: 100%
100 µM: 91.9%
100 nM: 100%

Set 4 — action: degrader; technique: HiBiT; cell line: HEK293; quantity: remaining protein
SMILES: Cn1cc(-c2cccc(CN3CCC4(CC3)COc3c4ccc4c3CN([C@@H]3CCC(=O)NC3=O)C4=O)c2)cn1
DNA-binding protein Ikaros: DNA-binding protein Ikaros (Homo sapiens, UniProt Q13422)
Chain of UniProt Q13422 (whole entry, looked up): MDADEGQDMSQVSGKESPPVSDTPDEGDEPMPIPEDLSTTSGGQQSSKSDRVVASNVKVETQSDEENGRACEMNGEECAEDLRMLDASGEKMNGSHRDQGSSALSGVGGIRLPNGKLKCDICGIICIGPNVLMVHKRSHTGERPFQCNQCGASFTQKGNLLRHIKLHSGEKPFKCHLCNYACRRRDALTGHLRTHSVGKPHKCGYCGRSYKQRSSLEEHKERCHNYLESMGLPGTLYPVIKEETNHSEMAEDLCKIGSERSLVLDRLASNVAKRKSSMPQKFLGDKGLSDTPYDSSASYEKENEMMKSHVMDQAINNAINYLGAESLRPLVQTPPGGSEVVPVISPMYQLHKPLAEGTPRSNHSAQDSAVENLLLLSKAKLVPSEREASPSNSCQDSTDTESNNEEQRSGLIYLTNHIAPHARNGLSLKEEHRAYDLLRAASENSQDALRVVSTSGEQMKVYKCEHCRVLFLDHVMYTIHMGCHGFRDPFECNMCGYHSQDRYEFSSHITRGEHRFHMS
GSPT1: Eukaryotic peptide chain release factor GTP-binding subunit ERF3A (GSPT1, Homo sapiens, UniProt P15170)
Chain of UniProt P15170 (whole entry, looked up): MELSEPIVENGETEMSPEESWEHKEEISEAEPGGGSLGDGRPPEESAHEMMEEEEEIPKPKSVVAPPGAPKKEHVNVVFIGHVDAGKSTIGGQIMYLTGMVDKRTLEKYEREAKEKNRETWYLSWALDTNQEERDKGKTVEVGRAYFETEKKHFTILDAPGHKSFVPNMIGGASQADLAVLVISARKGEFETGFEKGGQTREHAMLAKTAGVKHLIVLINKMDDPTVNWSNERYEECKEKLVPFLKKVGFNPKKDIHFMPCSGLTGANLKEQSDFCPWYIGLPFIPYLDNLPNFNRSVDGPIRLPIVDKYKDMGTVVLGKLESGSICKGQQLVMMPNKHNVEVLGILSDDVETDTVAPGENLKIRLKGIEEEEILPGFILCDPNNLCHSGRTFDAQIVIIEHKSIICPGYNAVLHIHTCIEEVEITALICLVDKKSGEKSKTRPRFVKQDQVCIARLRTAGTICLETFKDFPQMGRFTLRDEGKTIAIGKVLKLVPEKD
CSNK1A1: Casein kinase I isoform alpha (CSNK1A1, Homo sapiens, UniProt P48729)
Chain of UniProt P48729 (whole entry, looked up): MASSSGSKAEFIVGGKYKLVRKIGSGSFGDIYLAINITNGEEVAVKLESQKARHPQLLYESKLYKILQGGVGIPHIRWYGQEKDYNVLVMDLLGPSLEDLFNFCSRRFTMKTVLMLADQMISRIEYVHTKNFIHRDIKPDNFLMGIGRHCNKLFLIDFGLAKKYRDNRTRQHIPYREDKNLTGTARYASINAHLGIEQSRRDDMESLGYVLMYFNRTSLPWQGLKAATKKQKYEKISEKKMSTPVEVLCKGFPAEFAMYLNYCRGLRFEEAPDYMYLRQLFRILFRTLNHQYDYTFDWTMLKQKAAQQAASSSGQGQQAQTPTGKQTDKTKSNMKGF
DNA-binding protein Ikaros; 13.72 nM: 94.6% and 101%
DNA-binding protein Ikaros; 1111.11 nM: 95.6% and 92.9%
Zinc finger protein Aiolos (Homo sapiens, UniProt Q9UKT9); 0.5081 nM: 102%
GSPT1; 3333.33 nM: 102% and 87%
CSNK1A1; 123.5 nM: 102% and 93%
Sal-like protein 4 (SALL4, Homo sapiens, UniProt Q9UJQ4); 41.15 nM: 90.3% and 85.2%
CSNK1A1; 0.1694 nM: 104% and 108%
GSPT1; 1.524 nM: 105% and 99.8%
DNA-binding protein Ikaros; 4.572 nM: 92.1% and 97.9%
CSNK1A1; 3333.33 nM: 97.8% and 98.6%
GSPT1; 0.5081 nM: 102% and 99.3%
DNA-binding protein Ikaros; 0.1694 nM: 109% and 96.2%
GSPT1; 41.15 nM: 104% and 105%

Other studies, line by line
CCOC(=O)/C=C/CN(CCCCN1c2ccccc2CCc2ccc(Cl)cc21)Cc1ccccc1.O=C(O)/C=C\C(=O)O — IC50 (E3 ubiquitin-protein ligase NEDD4, HECT domain (Homo sapiens, UniProt P46934); ubiquitination, inhibitor, TR-FRET; HECT domain): inactive
CCC1(c2cccc(-c3cn(C)nc3C)c2)C2=C(Nc3n[nH]cc31)C(F)C(C)(C)CC2=O (single isomer, unassigned) — remaining binding (pknB (Mycobacterium tuberculosis, UniProt P9WI81); binding, competition with immobilised ligand; 1 µM): 100%

A few entries again (set 1):
Delta-type opioid receptor, with Gi3 (OPRD1, Homo sapiens, UniProt P41143); human cells: 77 ± 2%
Delta-type opioid receptor, with GoB (OPRD1, Homo sapiens, UniProt P41143); human cells: 86 ± 2%
Delta-type opioid receptor, with GoA (OPRD1, Homo sapiens, UniProt P41143); human cells: 83 ± 2%
